{"data": "Measured values gathered from unrelated publications", "TMPRSS2": "Transmembrane protease serine 2 (TMPRSS2, Homo sapiens, UniProt O15393)", "PFF0160c E182D": "Dihydroorotate dehydrogenase (quinone), mitochondrial (PFF0160c, Plasmodium falciparum, UniProt Q08210, E182D)", "note": "Each line is one published result; not all experiments were run side by side.", "chain of UniProt O15393 (whole entry, looked up)": "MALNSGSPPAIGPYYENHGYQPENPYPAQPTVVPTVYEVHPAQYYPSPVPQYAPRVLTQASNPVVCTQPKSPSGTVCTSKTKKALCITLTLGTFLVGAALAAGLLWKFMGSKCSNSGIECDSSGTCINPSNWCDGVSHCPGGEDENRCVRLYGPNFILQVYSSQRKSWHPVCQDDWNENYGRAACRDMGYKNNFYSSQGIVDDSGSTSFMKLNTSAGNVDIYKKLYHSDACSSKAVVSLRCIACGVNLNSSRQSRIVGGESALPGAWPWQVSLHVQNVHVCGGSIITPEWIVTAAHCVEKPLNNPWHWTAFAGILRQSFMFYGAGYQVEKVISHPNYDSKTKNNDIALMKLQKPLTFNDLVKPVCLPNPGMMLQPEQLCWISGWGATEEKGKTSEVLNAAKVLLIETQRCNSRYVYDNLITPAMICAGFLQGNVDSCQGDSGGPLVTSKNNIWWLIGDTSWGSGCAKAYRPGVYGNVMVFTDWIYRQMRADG", "chain of UniProt P00519 (whole entry, unmodified, looked up)": "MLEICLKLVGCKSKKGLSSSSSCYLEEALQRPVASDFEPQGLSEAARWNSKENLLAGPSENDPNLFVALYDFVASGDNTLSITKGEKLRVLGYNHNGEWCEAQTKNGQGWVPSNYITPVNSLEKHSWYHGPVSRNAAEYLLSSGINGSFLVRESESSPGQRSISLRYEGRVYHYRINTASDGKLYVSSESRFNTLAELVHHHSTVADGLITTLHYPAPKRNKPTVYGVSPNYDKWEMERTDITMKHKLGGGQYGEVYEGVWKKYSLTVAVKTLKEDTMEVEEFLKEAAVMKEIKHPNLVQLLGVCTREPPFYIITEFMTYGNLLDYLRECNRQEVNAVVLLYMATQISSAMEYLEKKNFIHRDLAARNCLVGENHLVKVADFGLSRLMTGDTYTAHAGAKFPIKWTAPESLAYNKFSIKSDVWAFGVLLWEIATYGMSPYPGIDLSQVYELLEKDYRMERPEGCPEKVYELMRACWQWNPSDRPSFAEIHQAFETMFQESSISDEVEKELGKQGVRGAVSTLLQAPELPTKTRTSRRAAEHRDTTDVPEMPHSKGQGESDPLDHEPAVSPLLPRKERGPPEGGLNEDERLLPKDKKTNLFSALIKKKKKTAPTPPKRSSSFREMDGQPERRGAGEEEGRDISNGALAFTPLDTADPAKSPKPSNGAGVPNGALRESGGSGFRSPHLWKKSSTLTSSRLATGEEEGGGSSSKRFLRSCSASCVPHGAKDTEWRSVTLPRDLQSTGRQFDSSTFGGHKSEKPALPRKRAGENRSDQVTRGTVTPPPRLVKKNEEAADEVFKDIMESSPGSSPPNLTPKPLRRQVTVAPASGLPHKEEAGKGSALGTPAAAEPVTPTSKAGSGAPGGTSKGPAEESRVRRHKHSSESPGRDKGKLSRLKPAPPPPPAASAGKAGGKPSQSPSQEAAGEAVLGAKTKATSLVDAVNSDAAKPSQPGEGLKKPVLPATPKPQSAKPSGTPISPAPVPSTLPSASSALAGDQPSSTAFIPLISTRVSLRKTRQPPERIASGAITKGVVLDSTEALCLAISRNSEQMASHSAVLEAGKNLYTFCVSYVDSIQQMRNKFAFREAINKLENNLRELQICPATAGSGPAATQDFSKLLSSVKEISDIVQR", "chain of UniProt P41144 (whole entry, looked up)": "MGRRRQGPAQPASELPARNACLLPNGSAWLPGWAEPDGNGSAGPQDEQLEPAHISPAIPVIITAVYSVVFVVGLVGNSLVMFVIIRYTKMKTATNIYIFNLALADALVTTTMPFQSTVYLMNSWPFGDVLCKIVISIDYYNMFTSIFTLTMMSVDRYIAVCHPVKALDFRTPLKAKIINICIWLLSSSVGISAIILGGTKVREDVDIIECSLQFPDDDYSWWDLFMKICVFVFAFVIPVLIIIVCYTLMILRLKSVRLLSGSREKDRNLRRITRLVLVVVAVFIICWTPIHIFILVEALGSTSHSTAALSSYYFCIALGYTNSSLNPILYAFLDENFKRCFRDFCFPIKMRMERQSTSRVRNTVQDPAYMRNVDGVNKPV", "chain of UniProt P28335 (whole entry, looked up)": "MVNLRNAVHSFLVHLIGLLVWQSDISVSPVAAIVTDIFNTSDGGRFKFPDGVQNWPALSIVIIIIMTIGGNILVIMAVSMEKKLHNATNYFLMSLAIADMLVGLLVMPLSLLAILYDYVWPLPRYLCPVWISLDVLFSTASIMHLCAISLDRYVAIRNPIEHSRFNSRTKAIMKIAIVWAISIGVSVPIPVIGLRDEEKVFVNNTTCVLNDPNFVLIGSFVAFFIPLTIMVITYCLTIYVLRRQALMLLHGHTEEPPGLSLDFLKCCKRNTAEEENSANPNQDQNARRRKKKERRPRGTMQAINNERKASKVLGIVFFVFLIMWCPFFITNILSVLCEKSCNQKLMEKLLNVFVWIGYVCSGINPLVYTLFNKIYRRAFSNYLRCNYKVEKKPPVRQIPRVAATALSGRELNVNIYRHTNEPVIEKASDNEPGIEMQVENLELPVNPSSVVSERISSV", "chain of UniProt P07711 (whole entry, looked up)": "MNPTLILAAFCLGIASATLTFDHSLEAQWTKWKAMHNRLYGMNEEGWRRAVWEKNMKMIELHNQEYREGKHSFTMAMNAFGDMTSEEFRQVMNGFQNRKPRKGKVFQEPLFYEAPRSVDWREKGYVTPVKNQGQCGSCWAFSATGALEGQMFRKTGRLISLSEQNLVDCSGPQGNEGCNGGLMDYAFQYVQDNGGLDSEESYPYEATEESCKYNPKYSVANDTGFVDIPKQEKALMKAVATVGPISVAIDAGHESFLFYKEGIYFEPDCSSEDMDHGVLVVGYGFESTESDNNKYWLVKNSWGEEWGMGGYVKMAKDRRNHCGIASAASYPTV", "chain of UniProt P08173 (whole entry, looked up)": "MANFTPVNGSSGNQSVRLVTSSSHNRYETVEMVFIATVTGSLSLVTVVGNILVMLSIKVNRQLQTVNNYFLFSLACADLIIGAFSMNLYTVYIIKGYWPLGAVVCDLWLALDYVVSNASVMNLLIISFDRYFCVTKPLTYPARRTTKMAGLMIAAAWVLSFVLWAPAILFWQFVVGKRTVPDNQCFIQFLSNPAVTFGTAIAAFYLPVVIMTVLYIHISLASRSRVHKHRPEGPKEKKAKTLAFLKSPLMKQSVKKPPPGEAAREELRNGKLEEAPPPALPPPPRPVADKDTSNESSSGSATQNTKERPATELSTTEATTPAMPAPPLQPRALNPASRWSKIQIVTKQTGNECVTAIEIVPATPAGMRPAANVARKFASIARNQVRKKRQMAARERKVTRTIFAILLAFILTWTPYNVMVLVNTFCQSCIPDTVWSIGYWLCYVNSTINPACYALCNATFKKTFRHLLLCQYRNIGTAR", "chain of UniProt Q8TD19 (whole entry, looked up)": "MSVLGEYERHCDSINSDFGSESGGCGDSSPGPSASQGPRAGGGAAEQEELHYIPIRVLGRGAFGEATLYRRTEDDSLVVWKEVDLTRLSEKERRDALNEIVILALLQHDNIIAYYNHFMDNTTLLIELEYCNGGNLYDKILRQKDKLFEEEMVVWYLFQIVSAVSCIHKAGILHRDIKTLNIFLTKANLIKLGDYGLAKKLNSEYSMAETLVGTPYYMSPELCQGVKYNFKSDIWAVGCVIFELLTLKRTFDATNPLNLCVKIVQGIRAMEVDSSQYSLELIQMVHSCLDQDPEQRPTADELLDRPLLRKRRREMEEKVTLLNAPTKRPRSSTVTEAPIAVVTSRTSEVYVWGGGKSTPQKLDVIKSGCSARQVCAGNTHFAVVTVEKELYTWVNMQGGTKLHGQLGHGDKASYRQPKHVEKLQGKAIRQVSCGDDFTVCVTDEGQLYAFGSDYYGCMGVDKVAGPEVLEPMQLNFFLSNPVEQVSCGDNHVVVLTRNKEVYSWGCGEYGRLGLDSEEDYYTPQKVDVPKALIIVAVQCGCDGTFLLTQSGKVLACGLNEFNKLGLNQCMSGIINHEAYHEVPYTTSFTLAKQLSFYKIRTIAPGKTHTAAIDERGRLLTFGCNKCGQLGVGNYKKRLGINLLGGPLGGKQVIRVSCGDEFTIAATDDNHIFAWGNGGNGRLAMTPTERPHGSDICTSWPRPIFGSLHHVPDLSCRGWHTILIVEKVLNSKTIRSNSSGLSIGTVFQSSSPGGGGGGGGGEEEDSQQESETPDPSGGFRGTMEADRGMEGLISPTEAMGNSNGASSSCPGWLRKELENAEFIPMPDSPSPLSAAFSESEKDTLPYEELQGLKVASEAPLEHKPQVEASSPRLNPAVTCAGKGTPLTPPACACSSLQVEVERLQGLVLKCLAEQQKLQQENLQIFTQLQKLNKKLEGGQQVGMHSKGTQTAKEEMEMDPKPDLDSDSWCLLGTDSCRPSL", "chain of UniProt P21917 (whole entry, looked up)": "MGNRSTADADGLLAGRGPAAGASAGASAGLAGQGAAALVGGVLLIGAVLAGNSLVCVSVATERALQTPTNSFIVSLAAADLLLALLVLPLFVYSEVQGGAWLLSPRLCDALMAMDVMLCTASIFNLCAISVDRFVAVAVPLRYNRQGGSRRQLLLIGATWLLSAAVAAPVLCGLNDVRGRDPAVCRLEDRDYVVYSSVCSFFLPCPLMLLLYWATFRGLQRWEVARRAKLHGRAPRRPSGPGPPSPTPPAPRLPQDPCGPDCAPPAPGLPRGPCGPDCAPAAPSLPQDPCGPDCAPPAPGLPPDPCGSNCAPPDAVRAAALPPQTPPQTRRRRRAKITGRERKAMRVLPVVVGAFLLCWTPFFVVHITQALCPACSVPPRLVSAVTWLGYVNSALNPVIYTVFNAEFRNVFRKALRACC"}
{"SMILES": "COc1cc(CCNC(C)c2ccccc2O)c(OC)cc1C#N (stereo not drawn)", "tested on": "5-hydroxytryptamine receptor 2C (HTR2C, Homo sapiens, UniProt P28335)", "test": "calcium signal, agonist", "quantity": "EC50", "value": "93 nM"}
{"SMILES": "[2H]c1c([2H])c([C@]2([2H])CCCN2C(=O)C(C)(C)Oc2ccc3cn[nH]c3c2)c([2H])c([2H])c1C([2H])([2H])[2H]", "tested on": "Serine/threonine-protein kinase Nek9 (NEK9, Homo sapiens, UniProt Q8TD19)", "test": "binding, competition with immobilised ligand", "setting": "1 µM", "quantity": "remaining binding", "value": "78%"}
{"SMILES": "OC[C@H]1CNCCN1C[C@@H]1CCCN1C[C@H](CC1CCCCC1)N1CCN(CCC23CC4CC(CC(C4)C2)C3)[C@H](Cc2ccc(O)cc2)C1", "tested on": "Kappa-type opioid receptor (OPRK1, Cavia porcellus, UniProt P41144)", "test": "ligand displacement, radioligand", "setting": "0.5 µM, pH 7.5", "quantity": "remaining binding", "value": "103%"}
{"SMILES": "CC[C@H](C)[C@H](NC(=O)[C@H](Cc1ccccc1)NC(=O)[C@H](CCC(=O)O)NC(=O)[C@H](CCCNC(=N)N)NC(=O)[C@H](C)NC(=O)[C@H](C)NC(=O)[C@H](CCC(N)=O)NC(=O)[C@H](CCC(=O)O)NC(=O)[C@H](CCC(=O)O)NC(=O)[C@H](CC(C)C)NC(=O)[C@H](Cc1ccc(O)cc1)NC(=O)[C@H](CO)NC(=O)[C@H](CO)NC(=O)[C@@H](NC(=O)[C@H](CC(=O)O)NC(=O)[C@H](CO)NC(=O)[C@@H](NC(=O)[C@H](Cc1ccccc1)NC(=O)[C@@H](NC(=O)CNC(=O)[C@H](CCC(=O)O)NC(=O)[C@H](C)NC(=O)CCc1c[nH]cn1)[C@@H](C)O)[C@@H](C)O)C(C)C)C(=O)N[C@@H](C)C(=O)N[C@@H](Cc1c[nH]c2ccccc12)C(=O)N[C@@H](CC(C)C)C(=O)N[C@H](C(=O)N[C@@H](CCCNC(=N)N)C(=O)NCC(=O)N[C@@H](CCCNC(=N)N)C(=O)N[C@@H](CCCCNC(=O)COCCOCCNC(=O)COCCOCCNC(=O)CC[C@H](NC(=O)CCCCCCCCCCCCCCCCC(=O)O)C(=O)O)C(=O)NCC(=O)NCC(=O)N[C@@H](CO)C(=O)N[C@@H](CCCCNc1c(NCCCCCN(O)C(=O)CCC(=O)NCCCCCN(O)C(=O)CCC(=O)NCCCCCN(O)C(C)=O)c(=O)c1=O)C(=O)O)C(C)C", "test system": "rat, plasma", "setting": "subcutaneous, 20 nmol/kg", "quantity": "Tmax", "value": "8 h"}
{"SMILES": "Cc1nn(C)cc1-c1nc2c(N3CCN(Cc4ccc(Cl)cc4)CC3)c(Cl)cnc2[nH]1", "tested on": "Tyrosine-protein kinase ABL1, phosphorylated (ABL1, Homo sapiens, UniProt P00519, E255K)", "test": "binding, competition with immobilised ligand", "setting": "1 µM", "quantity": "remaining binding", "value": "77%"}
{"SMILES": "N.N.[Cl][Pt][Cl]", "tested on": "Pfeiffer", "test": "cell growth or viability, ATP luminescence", "setting": "10 µM, 72 h", "quantity": "inhibition", "value": "100%"}
{"SMILES": "COc1cnc(OC)n2nc(NS(=O)(=O)c3c(OCC(F)F)cccc3C(F)(F)F)nc12", "tested on": "L02", "test": "cell growth or viability, CCK-8", "setting": "12.5 µM, 72 h", "quantity": "inhibition", "value": "0.77%"}
{"SMILES": "COc1ccc(/C=C/c2cc(O)cc(O)c2)cc1", "tested on": "Procathepsin L (CTSL, Homo sapiens, UniProt P07711)", "test": "enzyme activity, inhibitor", "setting": "100 µM", "quantity": "remaining activity", "value": "18.6%"}
{"SMILES": "COc1ncccc1-c1cnn2ccc(N3CCN(C(=O)OC(C)C)CC3)nc12", "tested on": "Serine/threonine-protein kinase tousled-like 1 (TLK1, Homo sapiens, UniProt Q9UKI8)", "test": "binding, competition with immobilised ligand", "setting": "1 µM", "quantity": "remaining binding", "value": "97%"}
{"SMILES": "Nc1ncc(-c2nc(N3CCOCC3)nc(N3CCOCC3)n2)c(C(F)F)n1", "tested on": "Epidermal growth factor receptor (EGFR, Homo sapiens, UniProt P00533, A750P/del747-749)", "test": "cell-free assay, competition with immobilised ligand", "setting": "10 µM", "quantity": "remaining binding", "value": "63%"}
{"SMILES": "CC[C@H](C)[C@H](NC(=O)[C@H](CCc1ccccc1)NC(=O)CCc1ccccc1)C(=O)N[C@@H](CCCNC(=N)N)C(=O)c1nc2ccccc2s1", "tested on": "TMPRSS2", "test": "enzyme activity, inhibitor", "setting": "1 nM", "quantity": "activity vs control", "value": "88%"}
{"SMILES": "C#Cc1n[nH]c2c(-c3cn([C@@H](C)c4ccccn4)c(=O)[nH]c3=O)cc(F)cc12", "tested on": "Epidermal growth factor receptor (EGFR, Homo sapiens, UniProt P00533)", "test": "enzyme activity, inhibitor", "setting": "0.1 µM", "quantity": "inhibition", "value": "2.4%"}
{"SMILES": "Cc1nnc(N2C(=N)SC(=Cc3ccc(-c4ccc(OC(F)(F)F)cc4)o3)C2=O)s1", "tested on": "PFF0160c E182D", "test": "enzyme activity, inhibitor, absorbance", "quantity": "IC50", "value": "266 nM"}
{"SMILES": "[2H][C@@](CCCNC(=N)N)(NC(=O)[C@H](Cc1ccccc1)NC(=O)[C@H](CCC(N)=O)NC(C)=O)C(=O)c1nc2ccccc2s1", "tested on": "TMPRSS2", "test": "enzyme activity, inhibitor", "setting": "1 nM", "quantity": "activity vs control", "value": "23%"}
{"SMILES": "c1cncc([C@@H]2CCCN2)c1", "tested on": "D(4) dopamine receptor (DRD4, Homo sapiens, UniProt P21917)", "test": "ligand displacement", "setting": "50 µM", "quantity": "inhibition", "value": "0.78%"}
{"SMILES": "CC(C)CC(=O)OC[C@H]1O[C@@](C#N)(c2ccc3c(N)ncnn23)[C@H](O)[C@@H]1O", "tested on": "Muscarinic acetylcholine receptor M4 (CHRM4, Homo sapiens, UniProt P08173)", "test": "cell-free assay", "setting": "20 µM", "quantity": "inhibition", "value": "3%"}
{"SMILES": "C[C@H](NC(=O)[C@H](CCC(N)=O)NC(=O)[C@@H](N)CCCNC(=N)N)C(=O)N(CCCNC(=N)N)CC(=O)c1nc2ccccc2s1", "tested on": "TMPRSS2", "test": "enzyme activity, inhibitor", "setting": "1 nM", "quantity": "activity vs control", "value": "85%"}
{"SMILES": "O=C(CSc1nnc(O)n1Cc1ccccc1)Nc1ccccc1-c1ccccc1", "tested on": "PFF0160c E182D", "test": "enzyme activity, inhibitor, absorbance", "quantity": "IC50", "value": "473 nM"}
